Assay results from different studies.
Lines come from different studies, so protocols differ. Several values in a cell are separate wells, animals, samples, runs or records.
Partner: itself
B1: lacI 1-360 N125C (Escherichia coli, UniProt P03023); chain MKPVTLYDVAEYAGVSYQTVSRVVNQASHVSAKTREKVEAAMAELNYIPNRVAQQLAGKQSLLIGVATSSLALHAPSQIVAAIKSRADQLGASVVVSMVERSGVEACKAAVHNLLAQRVSGLIICYPLDDQDAIAVEAACTNVPALFLDVSDQTPINSIIFSHEDGTRLGVEHLVALGHQQIALLAGPLSSVSARLRLAGWHKYLTRNQIQPIAEREGDWSAMSGFQQTMQMLNEGIVPTAMLVANDQMALGAMRAITESGLRVGADISVVGYDDTEDSSCYIPPLTTIKQDFRLLGQTSVDRLLQLSQGQAVKGNQLLPVSLVKRKTTLAPNTQTASPRALADSLMQLARQVSRLESGQ
B2: GBP2 1-309 (Homo sapiens, UniProt P32456); sequence looked up; chain MAPEINLPGPMSLIDNTKGQLVVNPEALKILSAITQPVVVVAIVGLYRTGKSYLMNKLAGKKNGFSLGSTVKSHTKGIWMWCVPHPKKPEHTLVLLDTEGLGDIEKGDNENDSWIFALAILLSSTFVYNSMGTINQQAMDQLHYVTELTDRIKANSSPGNNSVDDSADFVSFFPAFVWTLRDFTLELEVDGEPITADDYLELSLKLRKGTDKKSKSFNDPRLCIRKFFPKRKCFVFDWPAPKKYLAHLEQLKEEELNPDFIEQVAEFCSYILSHSNVKTLSGGIPVNGPRLESLVLTYVNAISSGDLPC
B3: tnsC 1-503 A225V (Escherichia coli, UniProt P05846); sequence looked up; chain MSATRIQAVYRDTGVEAYRDNPFIEALPPLQESVNSAASLKSSLQLTSSDLQKSRVIRAHTICRIPDDYFQPLGTHLLLSERISVMIRGGYVGRNPKTGDLQKHLQNGYERVQTGELETFRFEEARSTAQSLLLIGCSGSGKTTSLHRILATYPQVIYHRELNVEQVVYLKIDCSHNGSLKEICLNFFRALDRALGSNYERRYGLKRHGIETMLALMSQIANAHVLGLLVIDEIQHLSRSRSGGSQEMLNFFVTMVNIIGVPVMLIGTPKAREIFEADLRSARRGAGFGAIFWDPIQQTQRGKPNQEWIAFTDNLWQLQLLQRKDALLSDEVRDVWYELSQGVMDIVVKLFVLAQLRALALGNERITAGLLRQVYQDELKPVHPMLEALRSGIPERIARYSDLVVPEIDKRLIQLQLDIAAIQEQTPEEKALQELDTEDQRHLYLMLKEDYDSSLLIPTIKKAFSQNPTMTRQKLLPLVLQWLMEGETVVSELEKPSKSKKVS
B4: SPA2 389-535 (Saccharomyces cerevisiae, UniProt P23201); Alexa 488 label; sequence looked up; chain LKITDGFISKYSSADGLIPAQYILNANNLIIQFTTRLSAVPIGDSTAISHQIGEELFQILSQLSNLISQLLLSADLLQYKDQVILLKASLSHAITSIRYFSVYGPVLIPKITVQAAVSEVCFAMCNLIDSAKIKSDSNGESTTSNEG
B5: amtB 26-428 (Escherichia coli, UniProt P69681); chain VADKADNAFMMICTALVLFMTIPGIALFYGGLIRGKNVLSMLTQVTVTFALVCILWVVYGYSLAFGEGNNFFGNINWLMLKNIELTAVMGSIYQYIHVAFQGSFACITVGLIVGALAERIRFSAVLIFVVVWLTLSYIPIAHMVWGGGLLASHGALDFAGGTVVHINAAIAGLVGAYLIGKRVGFGKEAFKPHNLPMVFTGTAILYIGWFGFNAGSAGTANEIAALAFVNTVVATAAAILGWIFGEWALRGKPSLLGACSGAIAGLVGVTPACGYIGVGGALIIGVVAGLAGLWGVTMLKRLLRVDDPCDVFGVHGVCGIVGCIMTGIFAASSLGGVGFAEGVTMGHQLLVQLESIAITIVWSGVVAFIGYKLADLTVGLRVPEEQEREGLDVNSHGENAYNA
B6: CRYBA1 (Homo sapiens, UniProt P05813-1); sequence looked up; chain METQAEQQELETLPTTKMAQTNPTPGSLGPWKITIYDQENFQGKRMEFTSSCPNVSERSFDNVRSLKVESGAWIGYEHTSFCGQQFILERGEYPRWDAWSGSNAYHIERLMSFRPICSANHKESKMTIFEKENFIGRQWEISDDYPSLQAMGWFNNEVGSMKIQSGAWVCYQYPGYRGYQYILECDHHGGDYKHWREWGSHAQTSQIQSIRRIQQ
B7: CAT S167D (Homo sapiens, UniProt P04040); chain MADSRDPASDQMQHWKEQRAAQKADVLTTGAGNPVGDKLNVITVGPRGPLLVQDVVFTDEMAHFDRERIPERVVHAKGAGAFGYFEVTHDITKYSKAKVFEHIGKKTPIAVRFSTVAGESGSADTVRDPRGFAVKFYTEDGNWDLVGNNTPIFFIRDPILFPSFIHDQKRNPQTHLKDPDMVWDFWSLRPESLHQVSFLFSDRGIPDGHRHMNGYGSHTFKLVNANGEAVYCKFHYKTDQGIKNLSVEDAARLSQEDPDYGIRDLFNAIATGKYPSWTFYIQVMTFNQAETFPFNPFDLTKVWPHKDYPLIPVGKLVLNRNPVNYFAEVEQIAFDPSNMPPGIEASPDKMLQGRLFAYPDTHRHRLGPNYLHIPVNCPYRARVANYQRDGPMCMQDNQGGAPNYYPNSFGAPEQQPSALEHSIQYSGEVRRFNTANDDNVTQVRAFYVNVLNEEQRKRLCENIAGHLKDAQIFIQKKAVKNFTEVHPDYGSHIQALLDKYNAEKPKNAIHTFVQSGSHLAAREKANL
B8: glnA (Azotobacter vinelandii, UniProt P22248); sequence looked up; chain MSKSLQLIKEHDVKWIDLRFTDTKGKQQHVTMPARDVDDDFFEYGKMFDGSSIAGWKGIEASDMILMPDDSTAVLDPFTEEPTLIIVCDIIEPSTMQGYDRDPRAIARRAEEYLKSTGIGDTAFFGPEPEFFIFDEVKYKSDISGSMFKIFSEQAAWNTDADFEGGNKGHRPGVKGGYFPVPPVDHDHEIRTAMCNALEEMGLKVEVHHHEVATAGQNEIGVSFNTLVAKADEVQTLKYCVHNVADAYGKTVTFMPKPLYGDNGSGMHVHMSIAKDGKNTFAGEGYAGLSDTALYFIGGIIKHGKALNGFTNPSTNSYKRLVPGFEAPVMLAYSARNRSASIRIPYVNSPKARRIEARFPDPSANPYLAFAALLMAGLDGIQNKIHPGDAADKNLYDLPPEEAKEIPQVCGSLKEALEELDKGRAFLTKGGVFSDDFIDAYLELKSEEEIKVRTFVHPLEYDLYYSV
B9: ADAR1 127-end 127-1226 A870T (human, UniProt P55265); sequence looked up; chain SSHFQELSIYQDQEQRILKFLEELGEGKATTAHDLSGKLGTPKKEINRVLYSLAKKGKLQKEAGTPPLWKIAVSTQAWNQHSGVVRPDGHSQGAPNSDPSLEPEDRNSTSVSEDLLEPFIAVSAQAWNQHSGVVRPDSHSQGSPNSDPGLEPEDSNSTSALEDPLEFLDMAEIKEKICDYLFNVSDSSALNLAKNIGLTKARDINAVLIDMERQGDVYRQGTTPPIWHLTDKKRERMQIKRNTNSVPETAPAAIPETKRNAEFLTCNIPTSNASNNMVTTEKVENGQEPVIKLENRQEARPEPARLKPPVHYNGPSKAGYVDFENGQWATDDIPDDLNSIRAAPGEFRAIMEMPSFYSHGLPRCSPYKKLTECQLKNPISGLLEYAQFASQTCEFNMIEQSGPPHEPRFKFQVVINGREFPPAEAGSKKVAKQDAAMKAMTILLEEAKAKDSGKSEESSHYSTEKESEKTAESQTPTPSATSFFSGKSPVTTLLECMHKLGNSCEFRLLSKEGPAHEPKFQYCVAVGAQTFPSVSAPSKKVAKQMAAEEAMKALHGEATNSMASDNQPEGMISESLDNLESMMPNKVRKIGELVRYLNTNPVGGLLEYARSHGFAAEFKLVDQSGPPHEPKFVYQAKVGGRWFPAVCAHSKKQGKQEAADAALRVLIGENEKAERMGFTEVTPVTGASLRRTMLLLSRSPEAQPKTLPLTGSTFHDQIAMLSHRCFNTLTNSFQPSLLGRKILTAIIMKKDSEDMGVVVSLGTGNRCVKGDSLSLKGETVNDCHAEIISRRGFIRFLYSELMKYNSQTAKDSIFEPAKGGEKLQIKKTVSFHLYISTAPCGDGALFDKSCSDRAMESTESRHYPVFENPKQGKLRTKVENGEGTIPVESSDIVPTWDGIRLGERLRTMSCSDKILRWNVLGLQGALLTHFLQPIYLKSVTLGYLFSQGHLTRAICCRVTRDGSAFEDGLRHPFIVNHPKVGRVSIYDSKRQSGKTKETSVNWCLADGYDLEILDGTRGTVDGPRNELSRVSKKNIFLLFKKLCSFRYRRDLLRLSYGEAKKAARDYETAKNYFKKGLKDMGYGNWISKPQEEKNFYLCPV
B10: yjoB (Bacillus subtilis, UniProt O34703); sequence looked up; chain MTNIPFIYQYEEKENERAAAGYGTFGYLITRIEETLYDQYGVFYELYASDDPNTEYWELLVEDVRSGSLEPEHVAYIFEKLEKKTFAYDEDEKEPDYTVHKSIRNSVYAYPEKGVAFARIPYFQDGSIMSFDCLFAVNDEKMRAFLEGVRPRLWEKSKRKVTVFTDGDGGTSREQEAIVREVQRSQVIMNPLLKKEIYRSIDQFFHSDKSFYQTYDIPYKRGILLYGPPGNGKTTLVKSIAGSIDAPVAYWQITEFTSSETIEEVFQAARRLAPAVLVIEDIDSMPEDVRSFFLNTLDGATSKEGLFLIGTTNYPEEIDPGLMNRAGRFDRAYEIGLPDEELRLEYMKMRGFGIFLSEGEIKNAAKLTEGFSFAQLGELYVSSALQWHQEGNHHIETMVKDMTGEQRKSQRGSWMERNKVGFH
B11: SLFN14 E206A/E211A (Homo sapiens, UniProt P0C7P3); sequence looked up; chain MESLKTDTEMPYPEVIVDVGRVIFGEENRKKMTNSCLKRSENSRIIRAICALLNSGGGVIKAEIDDKTYSYQCHGLGQDLETSFQKLLPSGSQKYLDYMQQGHNLLIFVKSWSPDVFSLPLRICSLRSNLYRRDVTSAINLSASSALELLREKGFRAQRGRPRVKKLHPQQVLNRCIQEEEDMRILASEFFKKDKLMYKEKLNFTASTHVAFKRFTTKKVIPRIKEMLPHYVSAFANTQGGYVLIGVDDKSKEVVGCKWEKVNPDLLKKEIENCIEKLPTFHFCCEKPKVNFTTKILNVYQKDVLDGYVCVIQVEPFCCVVFAEAPDSWIMKDNSVTRLTAEQWVVMMLDTQSAPPSLVTDYNSCLISSASSARKSPGYPIKVHKFKEALQRHLFPVTQEEVQFKPESLCKKLFSDHKELEGLMKTLIHPCSQGIVIFSRSWAGDVGFRKEQNVLCDALLIAVNSPVVLYTILIDPNWPGGLEYARNTAHQLKQKLQTVGGYTGKVCIIPRLIHLSSTQSRPGEIPLRYPRSYRLADEEEMEDLLQALVVVSLSSRSLLSDQMGCEFFNLLIMEQSQLLSESLQKTRELFIYCFPGVRKTALAIKIMEKIKDLFHCKPKEILYVCESDSLKDFVTQQTTCQAVTRKTFMQGEFLKIKHIVMDETENFCSKYGNWYMKAKNITHPKAKGTGSENLHHGILWLFLDPFQIHHADVNGLPPPSAQFPRKTITSGIHCALEIAKVMKEEMKRIKENPPSNMSPDTLALFSETAYEEATCAQALPGVCETKTNLTTEQIANYVARKCHSLFQCGYLPKDIAILCRRGEDRGRYRLALLKAMELIETHRPSEVVFSPATGVWGSHIVLDSIQQFSGLERTVVFGLSPECDQSEEFHKLCFASRAIKHLYLLYEKRAAY
B12: sso0001 1-202 C191A (Sulfolobus solfataricus, UniProt Q97TX9); chain MITEFLLKKKLEEHLSHVKEENTIYVTDLVRCPRRVRYESEYKELAISQVYAPSAILGDILHLGLESVLKGNFNAETEVETLREINVGGKVYKIKGRADAIIRNDNGKSIVIEIKTSRSDKGLPLIHHKMQLQIYLWLFSAEKGILVYITPDRIAEYEINEPLDEATIVRLAEDTIMLQNSPRFNWECKYAIFSVICPAKLT
B13: BEX3 (Homo sapiens, UniProt Q00994); sequence looked up; chain MANIHQENEEMEQPMQNGEEDRPLGGGEGHQPAGNRRGQARRLAPNFRWAIPNRQINDGMGGDGDDMEIFMEEMREIRRKLRELQLRNCLRILMGELSNHHDHHDEFCLMP
Sequence of UniProt P37659 (whole entry, looked up): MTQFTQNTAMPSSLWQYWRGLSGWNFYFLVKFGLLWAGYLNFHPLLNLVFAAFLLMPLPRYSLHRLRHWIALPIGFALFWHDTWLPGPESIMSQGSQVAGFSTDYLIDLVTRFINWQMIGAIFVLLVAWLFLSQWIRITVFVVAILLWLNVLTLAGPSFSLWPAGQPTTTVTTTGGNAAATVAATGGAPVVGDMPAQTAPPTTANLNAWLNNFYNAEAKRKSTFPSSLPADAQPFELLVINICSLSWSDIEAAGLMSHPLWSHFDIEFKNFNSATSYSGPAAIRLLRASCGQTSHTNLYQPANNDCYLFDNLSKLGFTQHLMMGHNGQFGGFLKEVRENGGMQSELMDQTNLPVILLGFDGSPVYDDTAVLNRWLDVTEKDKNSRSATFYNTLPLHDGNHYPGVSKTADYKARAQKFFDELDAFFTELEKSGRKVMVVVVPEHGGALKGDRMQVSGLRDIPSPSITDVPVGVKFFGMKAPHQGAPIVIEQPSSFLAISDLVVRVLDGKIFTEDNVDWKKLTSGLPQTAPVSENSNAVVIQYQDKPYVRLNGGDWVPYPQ

`MKGMSKMPAFALAWPREVLDLVRKVAEENGRSVNSEIYQRVMESFKKEGRIGA (Arc repressor 1-53 Q9A/N11A/R13A (P22 phage, UniProt P03050))` — result for “subunits per oligomer”: 2 (SEC).
`B1 (lacI 1-360 N125C)`: “subunits per oligomer” 4 (SEC).
`B2 (GBP2 1-309)`: “subunits per oligomer” 2 (SEC).
For `B3 (tnsC 1-503 A225V)`, “subunits per oligomer” read 2 (X-ray crystallography; together with: ADP).
`B4 (SPA2 389-535)`: “subunits per oligomer” 4 (SEC; broad peak).
`B5 (amtB 26-428)`: “subunits per oligomer” 3 (native MS).
`B6 (CRYBA1)`: “subunits per oligomer” 2 (native MS; abundances relative to monomer).
For `B7 (CAT S167D)`, “subunits per oligomer” read 2 and 4 (cross-linking; CaSki).
`bcsG (Escherichia coli, UniProt P37659)`: “subunits per oligomer” 3 (cryo-EM).
Under “subunits per oligomer”, `Sncg (Mus musculus, UniProt Q9Z0F7)` is recorded as 2 (SDS-PAGE, western blot; not purified, SDS-resistant oligomers).
`B8 (glnA)`: “subunits per oligomer” 12 (cryo-EM).
Under “subunits per oligomer”, `B9 (ADAR1 127-end 127-1226 A870T)` is recorded as 2 (SEC).
`B10 (yjoB)` — result for “subunits per oligomer”: 6 (crystal structure).
`B11 (SLFN14 E206A/E211A)` — result for “subunits per oligomer”: 2 (SEC).
For `B12 (sso0001 1-202 C191A)`, “subunits per oligomer” read 5 protomers (SEC).
For `B13 (BEX3)`, “subunits per oligomer” read 2 (SDS-PAGE).

Repeated from above:
`B2 (GBP2 1-309)`: “subunits per oligomer” 2 (SEC).
`B10 (yjoB)` — result for “subunits per oligomer”: 6 (crystal structure).
